Measured values of several laboratories.
Lines come from different studies, so protocols differ. ± gives the spread as reported.
UCHL1: Ubiquitin carboxyl-terminal hydrolase isozyme L1 (UCHL1, Homo sapiens, UniProt P09936)
UniProt P09936, sequence (whole entry, looked up): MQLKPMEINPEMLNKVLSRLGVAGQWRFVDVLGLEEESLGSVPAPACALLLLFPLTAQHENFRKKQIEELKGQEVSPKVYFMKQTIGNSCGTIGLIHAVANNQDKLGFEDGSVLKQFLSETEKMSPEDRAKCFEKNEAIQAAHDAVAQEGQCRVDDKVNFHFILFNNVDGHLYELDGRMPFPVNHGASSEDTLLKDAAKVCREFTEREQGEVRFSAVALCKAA

With `C=CC(=O)Nc1cc(Nc2nccc(-c3cn(C)c4ccccc34)n2)c(OC)cc1N(C)CCN(C)C` the recovery was 55.1% (human plasma; 24 h, storage stability, medium QC sample).
For `Cc1cc(NC2CCN(C(=O)OC3CCN(C(=O)/C=C/CN(C)C)C3)CC2)n2ncc(C(C)C)c2n1` (stereo not drawn), “patients with Arthralgia” read 0% (patients with advanced solid tumours; dose not given, QD arm, grade 3 or higher).
`C[C@H](CS)C(=O)N1CCC[C@H]1C(=O)O`: “mean blood pressure” 36 ± 0.2 mmHg (male Hartley guinea pigs, anaesthetized; intravenous, 30 mg/kg group, baseline before infusion).
With `COC(=O)[C@@H]1[C@H]2C[C@H]3c4[nH]c5ccccc5c4CCN3C[C@@H]2CC[C@@H]1O` the concentration was 480 nM (rat, brain; intraperitoneal, 1 mg/kg, 1.5 h).
`O=C(CCl)NC1CN(S(=O)(=O)c2ccc3c(c2)OCCO3)C1` has a labelling of 14.1% (UCHL1; covalent, intact protein LC-MS; 12.5 µM).
`Cc1cc(NC(=O)c2cccc(NC(=O)/C=C/CN(C)C)c2)ccc1Nc1nccc(-c2cccnc2)n1` has a remaining compound of 65.8% (primary hepatocytes, rat Wistar male; 1 µM, 90 min).
`CC(C)NCC(O)COc1cccc2ccccc12` (stereo not drawn) — result for “mean blood pressure”: 36 ± 0.2 mmHg (male Hartley guinea pigs, anaesthetized; intravenous, 3 mg/kg over 10 min, after infusion).
For `COCc1cc(C(=O)Nc2cc([C@H]3CC[C@@H](OC(=O)NC(C)C)C3)[nH]n2)n(C)n1`, the unbound Cmax was 335 nM (OVCAR-3 xenograft, NOD/SCID gamma mice, plasma; oral, 15 twice daily, PK/PD study).
`CC(C)(C(=O)N1CCOc2c(C#N)cncc2C1)C(F)F` — result for “subjects with TEAE”: 0% (refers to: general and administration site disorders; human, both sexes; oral, 10 mg once daily, 14 days, multiple ascending dose).
For `C=CC(=O)N1CCC[C@@H](n2c(=O)n(-c3ccc(Oc4ccccc4)cc3)c3c(N)nccc32)C1`, “AUC(0-last) fed/fasted ratio” read 1.54 (human; oral, 120 mg; baseline: fed over fasted).
`Cn1cc(Nc2nccc(-c3ccc4c(c3)CN(C3COC3)CC[C@H]4NC(=O)c3cn(C(C)(C)C)nn3)n2)cn1`: “CD8+ T cell count change” -5.23% (human, whole blood; 300 mg twice daily, day 14; baseline: pre-dose baseline).
`C[Si]1(C)O[Si](C)(C)O[Si](C)(C)O[Si](C)(C)O[Si](C)(C)O1` — result for “intercept A, log KAW vs 1/T”: 24.9.
`O=C(O)c1cccnc1Nc1cccc(C(F)(F)F)c1` has a pKa (acidic) of 4.8.
Under “trough plasma concentration”, `CCC(C)n1ncn(-c2ccc(N3CCN(c4ccc(OCC5COC(Cn6cncn6)(c6ccc(Cl)cc6Cl)O5)cc4)CC3)cc2)c1=O` (stereo not drawn) is recorded as 139 ng/mL (human, plasma; oral, dose not given, day 15 predose, median).
For `Cc1ccc(O)c(-n2nc3ccccc3n2)c1`, “mean daily dermal uptake” read 109 ng/kg body weight/day (exposure assessment; human, age 21-60 years; foundation).
For `COc1cc2c3c(n(CCCN4CCOCC4)c(=O)c2cc1OC)-c1cc2c(cc1C3=O)OCO2`, the Cmax was 1520 ng/mL (beagle dogs, female, plasma; intravenous infusion, 646 mg/m^2, 1 h infusion).
`C[C@@H](Nc1cc(F)cc(F)c1)c1cc(C(=O)N(C)C)cc2c(=O)cc(N3CCOCC3)oc12` has an AUC(0-12 h) of 3190 ng·h/mL (refers to: M1 metabolite; human; oral, 240 mg, single dose day 1, 5:2 BID regimen).
`Cc1ccc([C@@H]2O[C@H](CO)[C@@H](O)[C@H](O)[C@H]2O)cc1Cc1ccc(-c2ccc(F)cc2)s1`: “urinary potassium excretion change” 0.662 mEq (Japanese type 2 diabetes patients; 200 mg, day 18, 24 h urine collection; baseline: baseline).
For `Cc1ccc(C(=O)Nc2ccnc(S(N)(=O)=O)c2)c(N2CCCC(F)(F)CC2)n1`, “unbound plasma concentration” read 195 to 394 nM (rhesus monkey, plasma; oral, 10 mg/kg).
For `Cc1ccc(C(=O)N(CCCN)C(c2nc3snc(C)c3c(=O)n2Cc2ccccc2)C(C)C)cc1` (stereo not drawn), “patients with adverse event” read 0% (stomatitis grade ≥3 (CTCAE); human patients; intravenous, 7 mg/day).
`CNCc1ccc(-c2[nH]c3cc(F)cc4c3c2CCNC4=O)cc1` has a constipation incidence of 25% (patients; oral, 360 mg twice daily, all grades).
`Cc1cc(C)c(NC(=O)C(C#N)=Cc2cccnc2)c(C)c1` has a labelling of 30.3% (UCHL1; covalent, intact protein LC-MS; 12.5 µM).
For `CC[C@H](C)[C@H](NC(=O)CN)C(=O)N[C@@H](C)C(=O)N[C@@H](CC(=O)O)C(=O)N[C@@H](C)C(=O)N[C@H](C(=O)N[C@@H](CCCCN)C(=O)N[C@@H](C)C(=O)N[C@H](C(=O)N[C@@H](C)C(=O)N[C@@H](CCCCN)C(=O)N[C@@H](C)C(=O)N[C@@H](CC(C)C)C(=O)NCC(N)=O)[C@@H](C)CC)[C@@H](C)CC`, “mean residue ellipticity” read -5340 deg cm2/dmol (circular dichroism at 222 nm; 30% TFE; 100 µM).
`O=C(c1cc(Cc2n[nH]c(=O)c3ccccc23)ccc1F)N1CCN(C(=O)C2CC2)CC1` gave an AUC(0-12 h) of 3970 ng·h/mL (HPLC-MS/MS; human patients, plasma; oral, 25 mg twice daily, dose level -1, cycle 1 day 1, together with: carboplatin target AUC 3).
`COc1cc2nccc(Oc3ccc(NC(=O)c4cc5c(n(-c6ccccc6)c4=O)CCCC5=O)nc3)c2cc1OC`: “grade ≥3 Thrombocytopenia patients” 33.3% (relapsed or refractory AML; oral, 6 mg once daily).
For `CC(C)[C@@H]1CC[C@@H](C)C[C@@H]1O`, “mean erythrocyte fragility” read 0.65% (osmotic fragility; human erythrocytes; 10 µM).
`COc1cc2[nH]c(C)c(-c3cc4ccccc4s3)c(=O)c2cc1Cl` gave a Papp of 241 ×10⁻⁶ cm/s (PAMPA; pH 7.4).
`COc1ccc(C[C@@H](C)[C@@H](C)Cc2ccc(OC)c(OC)c2)cc1OC` gave a Tmax of 2 h (beagle dog female, plasma; oral, 100 mg/kg/day, day 1, median).
`N#Cc1ccc2c(c1)[C@H]1CCCN(C(=O)c3ccc4[nH]cnc4c3)[C@H]1C2` gave an SHBG level of 34.8 nmol/L (human males; 160 mg, day 7).
Under “sum of log protonation constants”, `c1cc2nc(c1)CNCc1cccc(n1)CNC2` is recorded as 15.6 (potentiometry).
For `CCN1CCN(Cc2ccc(NC(=O)c3ccc(C)c(NC(=O)c4cncc(-c5cccs5)c4)c3)cc2C(F)(F)F)CC1`, the Vz/F was 32.9 L/kg (C57BL/6 mouse, plasma; intraperitoneal, 20 mg/kg, single dose).
`Cc1ncc2c(c1O)COC2c1ccc(Cl)cc1` (stereo not drawn) has a pKa (acidic) of 8.5.
Under “mean blood pressure”, `O=C(CCCN1CC=C(n2c(=O)[nH]c3ccccc32)CC1)c1ccc(F)cc1` is recorded as 29 ± 0.2 mmHg (male Hartley guinea pigs, anaesthetized; intravenous, 0.03 mg/kg over 10 min, after infusion).
`O=C(O)CCC(=O)O.[2H]C([2H])([2H])Oc1cc(C)c2[nH]ccc2c1CN1CC[C@@H](C2CC2)C[C@H]1c1ccc(C(=O)O)cc1`: “subjects with hyperuricaemia” 25% (multiple ascending dose; healthy Chinese subjects; 50 mg twice daily).
Under “bilirubin increase incidence (all grades)”, `CNC(=O)c1ccc(-c2cnc3ncc(Cc4ccc5ncccc5c4)n3n2)cc1F` is recorded as 11% (CTCAE v4.0, any causality; human cancer patients; oral, 600 mg twice daily, expansion cohort at RP2D).
For `CN1CCN(c2cccc3c2CCN(C(=O)/C=C/c2c(-n4cnnn4)ccc(Cl)c2F)[C@@H]3C(=O)Nc2ccc(C(=O)O)cc2)C(=O)C1`, “upper respiratory infection subjects” read 22.2% (healthy human subjects; intravenous infusion, 9 mg/h, 5 days, study).
`CCCCC1=NC2(CCCC2)C(=O)N1Cc1ccc(-c2ccccc2S(=O)(=O)Nc2noc(C)c2C)c(COCC)c1` gave an AUC(0-inf) of 311000 ng·h/mL (healthy adult volunteers, plasma; oral, 1600 mg, single dose, fed, crushed tablet).
`Cc1cccc(CNC(=O)c2cn(CCNC(=O)c3ccccc3Sc3c([N+](=O)[O-])ncn3C)c3cc4c(cc3c2=O)OCO4)n1` gave a remaining compound of 94.1% (human, whole blood; 1 µM, 0.5 h).
The uptake of `CN(CCCN1CCN(C(=O)CN2CCN(CC(=O)[O-])CCN(CC(=O)[O-])CCN(CC(=O)[O-])CC2)CC1)c1ccc2nccc(C(=O)NCC(=O)N3CC(F)(F)C[C@H]3C#N)c2c1.[68Ga+3]` is reported as 0.1 %IA/g (mice, HT-1080.hFAP and HT-1080 wild-type xenografts, blood; iv, 500 pmol, 4 h post injection).
`CNc1ccc(-c2nc3ccc(O)cc3s2)cc1` [carbon-11 labelled] gave an SUV of 0.171 ± 0.072 (ex vivo biodistribution; APP/PS1 mouse, AD model, muscle; intravenous, 30 min).
`CCOc1c([C@H](C)n2nc(C)c3c(N)ncnc32)cc(Cl)c(F)c1[C@@H]1CNC(=O)C1`: “LSM change in heart rate” no more than 5.13 bpm (previously treated B-cell malignancy patients; oral, dose not given).
`CCN1/C(=C/C(C)=O)Sc2ccc(F)cc21`: “QTc interval change” 103 ± 2.6% (cynomolgus monkey; oral, 30 mg/kg, 6 h post-dose; baseline: pre-dose).
`O=[N+]([O-])c1cnc2ccc(Cl)cc2c1O` has a maximum haemolysis of 2.4% (sheep erythrocytes; 1 h, pH 7.5).
With `CCn1c(C(=O)N(C2CC2)C2CC2)cc2c3c(ncn3C)c(Nc3cc(C)n(C)n3)nc21` the plasma concentration was 1850 ng/mL (cancer patients; oral, 200 mg single dose, day 1, 3.0 h).
With `COc1ncc(-c2nc3c(n2C(C)C)[C@H](c2ccc(Cl)cc2)N(c2cc(Cl)cn(C)c2=O)C3=O)c(OC)n1` the median Tmax was 2.5 h (human patients, plasma; oral, 25 mg, low-dose arm, cycle 2 day 1).
`FC(F)(F)c1ccc(CNc2ccc(Cc3c[nH]c4ncc(Cl)cc34)cn2)cn1`: “adverse event incidence” 11% (refers to: Constipation; patients with advanced solid tumours; oral, dose not given, grade 1 and 2, possibly related to drug).
The pruritus incidence of `Cc1cc(Nc2cc3ncccc3c(N[C@@H]3C[C@H]4CC[C@@H](C3)N4CCC#N)n2)n[nH]1` is reported as 0% (healthy human subjects; oral, 10 mg, 2 weeks, single ascending dose).
`Cc1c(-c2ccc(N3CCc4cccc(C(=O)Nc5nc6ccccc6s5)c4C3)nc2C(=O)O)cnn1CC12CC3(C)CC(C)(C1)CC(OCCNCC[C@H](O)CO)(C3)C2` — result for “QTcV interval change”: 1 ms (beagle dog, male, anaesthetised; intravenous infusion, 0.3 mg/kg/min, 15 min; baseline: vehicle).

A few entries again:
`C[Si]1(C)O[Si](C)(C)O[Si](C)(C)O[Si](C)(C)O[Si](C)(C)O1` — result for “intercept A, log KAW vs 1/T”: 24.9.
Under “bilirubin increase incidence (all grades)”, `CNC(=O)c1ccc(-c2cnc3ncc(Cc4ccc5ncccc5c4)n3n2)cc1F` is recorded as 11% (CTCAE v4.0, any causality; human cancer patients; oral, 600 mg twice daily, expansion cohort at RP2D).
For `CC(C)[C@@H]1CC[C@@H](C)C[C@@H]1O`, “mean erythrocyte fragility” read 0.65% (osmotic fragility; human erythrocytes; 10 µM).
`C[C@H](CS)C(=O)N1CCC[C@H]1C(=O)O`: “mean blood pressure” 36 ± 0.2 mmHg (male Hartley guinea pigs, anaesthetized; intravenous, 30 mg/kg group, baseline before infusion).
`Cc1cc(C)c(NC(=O)C(C#N)=Cc2cccnc2)c(C)c1` has a labelling of 30.3% (UCHL1; covalent, intact protein LC-MS; 12.5 µM).
`Cc1c(-c2ccc(N3CCc4cccc(C(=O)Nc5nc6ccccc6s5)c4C3)nc2C(=O)O)cnn1CC12CC3(C)CC(C)(C1)CC(OCCNCC[C@H](O)CO)(C3)C2` — result for “QTcV interval change”: 1 ms (beagle dog, male, anaesthetised; intravenous infusion, 0.3 mg/kg/min, 15 min; baseline: vehicle).
